# Assay results of several laboratories.
# Parts stem from different laboratories: compare values within a part only. Changes are numbered by the printed parent chain.

# Set 1
# Target: RING finger protein unkempt homolog, zinc fingers 1-6, SBP tag (UNK, Homo sapiens, UniProt Q9C0B0, residues 30-357)
# Chain of UniProt Q9C0B0 (30-357, looked up): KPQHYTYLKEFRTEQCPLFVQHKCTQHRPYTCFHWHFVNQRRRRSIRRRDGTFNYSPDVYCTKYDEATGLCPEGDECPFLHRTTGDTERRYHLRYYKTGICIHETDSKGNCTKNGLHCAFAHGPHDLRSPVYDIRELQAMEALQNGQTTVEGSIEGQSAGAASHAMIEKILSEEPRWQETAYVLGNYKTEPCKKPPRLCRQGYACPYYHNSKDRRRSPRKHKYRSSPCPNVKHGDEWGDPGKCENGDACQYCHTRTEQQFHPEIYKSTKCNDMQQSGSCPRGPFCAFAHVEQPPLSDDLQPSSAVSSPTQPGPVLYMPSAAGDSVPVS
# Technique: RNA Bind-n-Seq
# Molecule type: RNA
# Matrix: in vitro
# Tested at: 100 nM
# Setting: RNA with constant flanks, vertebrate orthologous sites, ends assumed
# Relative to: input RNA pool
# Direction: higher = stronger binding
# All sequences stand within: GGGAGUUCUACAGUCCGACGAUC … CAACAGAGGAUUGAGCAUCA
Strand,bound/input enrichment [ratio]
CAUUGUACCCUGCUGUAUAAUAAACAAUCUUAGACAUUUAUCAACUGUUGAUACAAAUGUUAGUUCCUAACCACUUUUUAUAUAUGUUUUAAAUUUUUGAAAUUCAAGUGUACCUGCCAU,1.19
AAUUGACCAAAAACGUUUCCACUGGGUUUUGCCUGUAAGAAAAAAAUGUACCUGAGCACAUAGAGCUUUUUAAUAGCACUAACCAAUGCCUUUUUAGAUGUAUUUUUGAUGUAUAUAUCU,0.786
CUUUAUGGGCCUCGAAGAGUUGAAAUAAUGGAAGAAGAAAGUGAACAGUAAUCUUCAAUUUAGUAUUUAUGCAGAGGUGUGAAAUAAAUGUUUUUUUGUUGUUAUUGUUAUAAUCUUGAG,0.745
CUACAAUAAUGAAAAACCUACCAGGAAUUUUUUUAUUUUUCAUUUCCCCUUGGGCAUUCCUAGUCUUUUUUCCCCCCAGGCAGAUCAUUCUGAGUGUGCGAGUGUGUGUGCACAUGUUAC,0.732
CAGCAGAUUCUCUCAUAGGGAGAGCUGCACAUAUUGCUGUUCUUGAUUCAGAAAUAUUUUUAGAAAAAUUCUUUCUUGUUGCUGCCCUAAAAUAUUUUCAGUAGAGAAAAGCAUUGUCAG,0.286
AUACUAUUCAUUUGACUGAAGUUAUUUAGAUAAAAGAAAUGGUUUAUGUCUUCUUUCAAGAAGCUUGUUCUAUUUUUCAUCUAUUUGUAAAUGCCAGUUGUGUGUGGUUUUGUAAUAUCA,0.295
GCAAUGAAAAAGCAGCCCUUCUCCCAGCCCCCUUUGCACUAGGAGAUACAAACGUUACCAUAGAAGAGCAAUUAAACUCAAUAAAUUUAUCUUUUCAGGAUGAUCCAGACUCCAGUACCA,0.989
CCUCCUGAACUUCUCUUGCUUUCAGGCUGUGGCUGUUUCAGAUACUGGUUUUAUUUUCUUUGCAGUUUUCCCCUGUCCCACCUUUCUCCCCUCCUUUCCAAGGUUUGACUCAUGGAUUGU,1.51
UCCAUGCCGCUGUCACCAAAAGCAGGCAGCUCCGUCUCACAAUCUCUUUCAUAGCACUUUUAGUACUUCCUCUUCCCUCCCCUUCCCUUUGCUUAGAUGAUGAUAAAAGGUCCUGAGUUU,1.16
AAAUUUAUUUCAUGCCCUGGACUCCCUACCGUACUGAUACUUUAAUAGAAUAUGCUUCUUUAGAAGAUUUCCAAAACAGCCGUCAGACGACAACAUACAAACUUCCAAAUCGAGUCGAUG,1.29
UUAUACUGGCCAAACAUUUUUGACUUAGGACUUAUUUUGACCUUUUUUUUUUUUUUUGGUGGUUCUCGUUACCCGCCCCAUGUAUUUGUUUCCUUCACUGAAGGGCUAGAGUUUUAACUU,1.26

# Set 2
# Target: Histone acetyltransferase KAT6A, winged helix 2, GST fusion (KAT6A, Homo sapiens, UniProt Q92794, residues 85-181)
# Technique: protein binding microarray
# Molecule type: double-stranded DNA, one strand shown
# Matrix: in vitro
# Tested at: not given
# Setting: 8-mer, flanks averaged, mean of 2 arrays, mostly near background
# Relative to: not given
# Direction: higher = stronger binding
# Target sequence (chain): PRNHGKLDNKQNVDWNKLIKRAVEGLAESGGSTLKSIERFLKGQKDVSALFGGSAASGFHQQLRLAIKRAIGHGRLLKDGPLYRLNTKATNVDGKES
Strand,E-score
AATGGTGA,-0.109
AAACATTT,0.0171
GGTGTCAC,0.0283
ATCTAGAT,0.071
GATAGTCA,-0.278
CTTAAACA,-0.0119
GATTCTCC,0.108
CAACTGTA,-0.171
ACAGCACG,0.0702
GTTGTGAA,-0.0993
ATCGAGGC,0.0863
CGGGTATA,0.00615
AATGGCTG,0.0825
GACTGCTC,0.0282
AGATTGGC,-0.147
ACCTGTGA,-0.0878
CCGGGCAA,0.166

# Set 3
# Target: RNA binding protein fox-1 homolog 2, RRM domain, GST-SBP tag (RBFOX2, Homo sapiens, UniProt O43251-10, residues 100-194)
# Technique: RNA Bind-n-Seq
# Molecule type: RNA
# Matrix: in vitro
# Tested at: 365 nM
# Setting: natural RNA segment, single round, ends assumed
# Relative to: no-protein control
# Direction: higher = stronger binding
# All sequences stand within: GGGAGUUCUACAGUCCGACGAUC … UGGAAUUCUCGGGUGCCAA
# Target sequence (chain): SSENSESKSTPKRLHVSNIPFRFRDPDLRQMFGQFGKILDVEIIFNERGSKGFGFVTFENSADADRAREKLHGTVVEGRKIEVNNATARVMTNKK
Strand,RBNS enrichment (R)
GCCCACAGCCUUCCGUGUGGGAUCUGCCAGGACAAGCUGGCUAGACCUCUGAGAAGUUGGAGAAGUCAGGAAAUUGUACUCUCCACACCGUCCUGGUUUAGUGGAUGGGG,0.421
UCUUUCAUAUAUAUUUUCACUUCCUAAUUCUAGUGUACAUAUCCCUGUAUAUCAUGGUAUCUGUGGGCAUAUGUCUGUUUCUUAUAAAGACACAUAUUUGUGUGUGUAUG,0.439
CCAGCCUGGGGUCCAACUCAGACUUGAAAGACUGCAAUAGAAAACUCCCAAACCCAGCACUCCAGACUCGAGGGAAGCCAGCUUCCAAGAACUGGAAUGCGUACGUCUUU,0.251
AUCUUUAUAAAUGAUCUUGGGUAAAUUACUGGUGAUUGUGAGGGUUGUUUCCCAAUCAAAGGUUAUUUCUAGAUGGCUAUAUGCUUUGUUGCAAUUUCUGCUUCCACCUA,0.823
ACCCAAUUAUAUUCUAAUGUGAAAAUAUUAGCAUAAAUAGGUGAAAUUGCUCUUCUGAAAAUUGUGUCCUGUGCUUUUAGACUUUGGAGUUCCACAGAUAGUAAAAAUAU,0.36
CCAUUUCUAAUGUUGUCCUCACAAGAAGGCUAAUUGGUGGUGAGACAGCAGGGGAGGAGGAAGAGCUGUGGUUUGUAACUUGUUCAACUCAGGCAAUAAGCGAUUUUAGC,0.441
GGUUUCCUCAUCUGUCAUGUCGAUGAUUAUAUAUGGAUACAUUUACAAAAAUAAAAAGCGGGAAUUUUCCCUUCGCUUGAAUAUUAUCCCUGUAUAUUGCAUGAAUGAGA,1.31
AAUCCCUCAUAUGAUGUAUCAGAUACAAUUGAGGUUCUAAUCUAGUCUGUUAAUUUAUCUGAAAUUGGAUUUUUUUUUAAAAAAGUAAUAAAAAAUUAAAUACUUCCCUU,1.25
UAGUCAUCCACAGAUGGCAAAACUGGACUUGAUUCUACUGGCAUGUAAGACAGGCGUGCUAGUGAGCAGUCGUGUGUGGCUCUGGACUCUGACCCCAGAGCUCUGAAGAA,1.19
CAGAUGUCCCAUUGCUCCCUGGAGCCUGUCAUGCCUGUUGGGGAUCAGGCAGCCUCCUGAUGCCAGAACACCUCAGGCAGAGCCCUACUCAGCUGUACCUGUCUGCCUGG,0.474
CAGUUCAUCUGGCCUUAACUGAAUGGAUUCCCUAUUUAACCAGAAACUGUUGUCCUCCUGCUAAACACUGUCUGUUAAGGGACUCAGUCAUAUAUGCUUAUUGUUUUGUU,0.909
AUACAUUUCCAGGCGUGCCUGUGUCCUGUAGCUUUUUAAAAGGAAACCCAGUCAUCCCACUAUGAAUCUGGCAUCUUCUUAUGCUUCUAGUGUUUUGGCCAUACAUCAAC,0.417

# Set 4
# Target: Sal-like protein 4, full length isoform A (SALL4, Homo sapiens, UniProt Q9UJQ4, residues 1-1053)
# Chain of UniProt Q9UJQ4 (whole entry, looked up): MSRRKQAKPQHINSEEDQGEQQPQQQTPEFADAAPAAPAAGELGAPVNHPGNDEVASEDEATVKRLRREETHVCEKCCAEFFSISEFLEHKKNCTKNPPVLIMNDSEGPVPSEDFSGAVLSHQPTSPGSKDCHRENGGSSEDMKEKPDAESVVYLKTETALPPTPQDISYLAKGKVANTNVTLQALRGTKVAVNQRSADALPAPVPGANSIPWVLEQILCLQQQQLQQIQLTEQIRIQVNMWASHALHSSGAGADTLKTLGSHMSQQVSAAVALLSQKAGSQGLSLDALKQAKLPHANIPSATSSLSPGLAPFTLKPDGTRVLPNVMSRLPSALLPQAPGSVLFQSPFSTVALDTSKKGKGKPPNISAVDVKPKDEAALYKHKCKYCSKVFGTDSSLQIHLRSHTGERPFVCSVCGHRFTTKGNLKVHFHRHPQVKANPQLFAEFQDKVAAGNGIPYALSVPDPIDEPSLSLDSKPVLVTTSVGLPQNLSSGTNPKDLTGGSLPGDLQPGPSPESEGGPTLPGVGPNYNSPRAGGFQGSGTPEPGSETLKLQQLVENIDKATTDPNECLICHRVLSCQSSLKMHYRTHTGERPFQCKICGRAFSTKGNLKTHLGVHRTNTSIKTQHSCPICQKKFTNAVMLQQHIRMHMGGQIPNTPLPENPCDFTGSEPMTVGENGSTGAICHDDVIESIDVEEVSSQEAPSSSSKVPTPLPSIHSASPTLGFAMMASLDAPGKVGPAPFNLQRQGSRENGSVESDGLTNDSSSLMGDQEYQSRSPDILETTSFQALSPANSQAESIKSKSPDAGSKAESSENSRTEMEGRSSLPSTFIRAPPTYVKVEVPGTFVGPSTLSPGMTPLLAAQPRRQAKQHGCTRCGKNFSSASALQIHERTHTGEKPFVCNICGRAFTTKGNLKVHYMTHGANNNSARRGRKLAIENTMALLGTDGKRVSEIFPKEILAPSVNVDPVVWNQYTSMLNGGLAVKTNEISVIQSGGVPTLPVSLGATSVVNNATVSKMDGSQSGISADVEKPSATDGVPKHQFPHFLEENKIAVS
# Technique: universal PBM
# Molecule type: double-stranded DNA, one strand shown
# Matrix: in vitro
# Tested at: 600 nM
# Setting: 8-mer, flanks averaged, mean of replicates
# Direction: higher = stronger binding
Strand,E-score
ACAGTTGG,0.00554
ACGGGGAT,-0.226
ACAGTACT,0.107
ATTGTAGA,0.302
ACGACTAT,0.189
GCCCAGAA,-0.243
CCGAAGAC,-0.213
AAACGACC,-0.0685
ATCTCCAT,-0.0342
AAAATCAG,0.0736
ATGACCTC,-0.125
GTCTCCTA,-0.0219
AATACGGT,-0.00198
CGGTACTC,-0.108
ACCTACAG,-0.199
CTAGCCCC,-0.165
GACAACAA,0.134
GCTAATTA,0.164
CTGGGCGC,-0.29
GCAGCCCC,-0.354
CTACTCAG,-0.133
ACGTCCTG,-0.239
AGTAATCG,0.0768
ACAACCGG,-0.119
CATTGCAC,0.0863

# Set 5
# Target: CCNA2, cyclin fold, Cln2 fusion (human)
# Technique: yeast growth competition, sequencing
# Matrix: yeast
# Setting: strong parent motif
# Relative to: not given
# Direction: higher = stronger binding
# Parent: CDKN1C docking peptide (human); TSACRSLFGPVDH; partner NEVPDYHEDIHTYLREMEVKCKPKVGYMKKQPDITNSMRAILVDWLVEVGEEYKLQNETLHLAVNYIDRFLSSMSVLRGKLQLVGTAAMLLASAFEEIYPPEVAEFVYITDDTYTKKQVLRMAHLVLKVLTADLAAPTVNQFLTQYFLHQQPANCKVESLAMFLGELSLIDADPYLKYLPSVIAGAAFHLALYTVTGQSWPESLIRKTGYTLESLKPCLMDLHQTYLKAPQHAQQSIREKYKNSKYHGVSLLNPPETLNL
Substitution,normalised enrichment score
H13A,3
L7A,-0.267
F8A,-0.217
P10A,2.58
D12A,2.84
C4A,2
F8L,0.435

# Set 6
# Target: Prothrombin, mature alpha-thrombin (F2, Homo sapiens, UniProt P00734)
# Technique: aptamer microarray, sandwich
# Molecule type: DNA with 2'F-ANA
# Matrix: in vitro
# Tested at: 200 nM
# Setting: whole 15-mer aptamer, many near background
# With: Cy3 exosite-II aptamer, 400 nM
# Direction: higher = stronger binding
# Strand: GGTTGGTGTGGTTGG
Modification,mean fluorescence intensity
2'F-ANA at 4 6 9 10 15,72.8 a.u.
2'F-ANA at 3 4 5 6 9 15,90.9 a.u.
2'F-ANA at 2 3 5 6 10 12,57.9 a.u.
2'F-ANA at 1 2 5 6 9 13 14,47.4 a.u.
2'F-ANA at 5 7 10 13 14,49.5 a.u.
2'F-ANA at 2 4 10 15,101 a.u.
2'F-ANA at 1 2 3 5 6 8 10,82 a.u.
2'F-ANA at 4 7 8 9 11 12,456 a.u.
2'F-ANA at 1 3 6 7 8 9 10 11,84.2 a.u.
2'F-ANA at 2 3 9 11 12 13 15,819 a.u.
2'F-ANA at 3 4 6 11,487 a.u.
2'F-ANA at 2 3 6 8 9 13 15,521 a.u.
2'F-ANA at 5 6 11 13 14 15,44.1 a.u.
2'F-ANA at 1 2 3 6 9 10 13 15,69.8 a.u.
2'F-ANA at 1 5 9 10 11 12,65.9 a.u.

# Excerpt of the above (set 3):
Strand,RBNS enrichment (R)
UCUUUCAUAUAUAUUUUCACUUCCUAAUUCUAGUGUACAUAUCCCUGUAUAUCAUGGUAUCUGUGGGCAUAUGUCUGUUUCUUAUAAAGACACAUAUUUGUGUGUGUAUG,0.439
CCAGCCUGGGGUCCAACUCAGACUUGAAAGACUGCAAUAGAAAACUCCCAAACCCAGCACUCCAGACUCGAGGGAAGCCAGCUUCCAAGAACUGGAAUGCGUACGUCUUU,0.251
AUCUUUAUAAAUGAUCUUGGGUAAAUUACUGGUGAUUGUGAGGGUUGUUUCCCAAUCAAAGGUUAUUUCUAGAUGGCUAUAUGCUUUGUUGCAAUUUCUGCUUCCACCUA,0.823
ACCCAAUUAUAUUCUAAUGUGAAAAUAUUAGCAUAAAUAGGUGAAAUUGCUCUUCUGAAAAUUGUGUCCUGUGCUUUUAGACUUUGGAGUUCCACAGAUAGUAAAAAUAU,0.36
CCAUUUCUAAUGUUGUCCUCACAAGAAGGCUAAUUGGUGGUGAGACAGCAGGGGAGGAGGAAGAGCUGUGGUUUGUAACUUGUUCAACUCAGGCAAUAAGCGAUUUUAGC,0.441
GGUUUCCUCAUCUGUCAUGUCGAUGAUUAUAUAUGGAUACAUUUACAAAAAUAAAAAGCGGGAAUUUUCCCUUCGCUUGAAUAUUAUCCCUGUAUAUUGCAUGAAUGAGA,1.31
AAUCCCUCAUAUGAUGUAUCAGAUACAAUUGAGGUUCUAAUCUAGUCUGUUAAUUUAUCUGAAAUUGGAUUUUUUUUUAAAAAAGUAAUAAAAAAUUAAAUACUUCCCUU,1.25
UAGUCAUCCACAGAUGGCAAAACUGGACUUGAUUCUACUGGCAUGUAAGACAGGCGUGCUAGUGAGCAGUCGUGUGUGGCUCUGGACUCUGACCCCAGAGCUCUGAAGAA,1.19
CAGAUGUCCCAUUGCUCCCUGGAGCCUGUCAUGCCUGUUGGGGAUCAGGCAGCCUCCUGAUGCCAGAACACCUCAGGCAGAGCCCUACUCAGCUGUACCUGUCUGCCUGG,0.474
CAGUUCAUCUGGCCUUAACUGAAUGGAUUCCCUAUUUAACCAGAAACUGUUGUCCUCCUGCUAAACACUGUCUGUUAAGGGACUCAGUCAUAUAUGCUUAUUGUUUUGUU,0.909
